Measurements of several laboratories.
Each line is one published result; not all experiments were run side by side.
PRKAA2: 5'-AMP-activated protein kinase catalytic subunit alpha-2 (PRKAA2, Homo sapiens, UniProt P54646)
PRKAA2 with beta2 gamma2: 5'-AMP-activated protein kinase catalytic subunit alpha-2, with beta2 gamma2 (PRKAA2, Homo sapiens, UniProt P54646)

Nc1ncc2c(n1)-c1c([nH]c3ccc(C4=CCOCC4)cc13)CCC2 — remaining binding (PRKAA2; binding, competition with immobilised ligand; 1 µM): 100%
Cc1cccc(O[C@H]2CCC[C@@H](C(C)CNCc3ccncc3)C2)c1 (relative stereo) — inhibition (PRKAA2; cell-free assay; 1 µM): 4%
C=CC(=O)Nc1cccc(-c2cnc3[nH]cc(C(=O)NC(C)(C)C)c3n2)c1 — inhibition (PRKAA2; enzyme activity, inhibitor; 0.1 µM): 52%
COc1ccc(NC(=O)Nc2ccc3c(c2)C(=O)N(C(C)CO)CC(C)C(CN(C)Cc2ccc4c(c2)OCO4)O3)cc1 (centres unmarked) — remaining activity (PRKAA2; kinase activity, KinaseProfiler; 0.03 µM, species human; relative to: control): 95%
O=C(Cc1ccc(OCc2ccccc2)cc1)NC1(C(=O)O)CCN(C(=O)c2ccc(-c3cccc(Cl)c3)cc2)CC1 — activity vs control (PRKAA2; enzyme activity, inhibitor; 10 µM): 108%
COc1ccc(C(=O)/C=C/c2ccccc2-c2c[nH]c3ccc(C#N)cc23)c(O)c1 — inhibition (PRKAA2; enzyme activity, inhibitor; 20 µM): 0%
CCN1CCN(Cc2ccc(C(=O)Nc3ccc(C)c(NCc4cnc5[nH]ccc5c4OC)c3)cc2C(F)(F)F)CC1 — remaining binding (PRKAA2; binding, competition with immobilised ligand; 1 µM): 97%
CNC1C[S+]2CC[S+]3CC[S+](C1)[Ru-4]321([N]=C=S)[n]2c3ccc(OC)cc3c3c4c(c5cc(F)c[n+]1c5c32)C(=O)NC4=O (centres unmarked) — remaining binding (PRKAA2; KinomeScan; 0.1 µM; relative to: untreated): 88%
CN1CCN(Cc2ccc(-c3ccc(CO[C@H]4CCC[C@@H]4NC(=O)c4cc(-c5cnn(C)c5)cnc4N)cc3)cc2)CC1 — inhibition (5'-AMP-activated protein kinase catalytic subunit alpha-2, with beta1 gamma2 (PRKAA2, Homo sapiens, UniProt P54646); SelectScreen kinase profiling; 0.1 µM): 0%
CCn1cc(C(=O)O)c(=O)c2c(N)c(F)c(NC3CCCCC3)cc21 — inhibition (PRKAA2 with beta2 gamma2; kinase activity; 0.1 µM, together with: ATP at Km): 13.6%
C=CC(=O)N1Cc2nc(-c3cc(-c4cc(Cl)cnc4Cl)c(F)cc3F)n(-c3ccncn3)c2C1 — inhibition (PRKAA2 with beta2 gamma2; kinome panel; 1 µM): -1.8%
COc1cc(Nc2nc(C)cc(-c3cnn4nc(OC)ccc34)n2)cc(C(F)(F)F)c1 — remaining binding (PRKAA2; KINOMEscan; 1 µM, AMPK-alpha2; relative to: DMSO): 100%
Cc1ccc(-c2c(/C=C(\C#N)C(=O)NC(C)C)n(CCCO)c3ncnc(N)c23)cc1 — remaining binding (PRKAA2; cell-free assay, competition with immobilised ligand; 1 µM): 100%
C=CC(=O)N1CCc2ccc(-n3c(=O)ccc4cnc5ccc(-c6cnn(C)c6)cc5c43)cc21 — remaining binding (PRKAA2; KINOMEscan; 1 µM; relative to: DMSO control): 87%

Some of these lines once more:
Nc1ncc2c(n1)-c1c([nH]c3ccc(C4=CCOCC4)cc13)CCC2 — remaining binding (PRKAA2; binding, competition with immobilised ligand; 1 µM): 100%
Cc1cccc(O[C@H]2CCC[C@@H](C(C)CNCc3ccncc3)C2)c1 (relative stereo) — inhibition (PRKAA2; cell-free assay; 1 µM): 4%
